Experimental data pooled from the literature.
Numbered parts are unrelated; each lists some results of a single study. Changes are numbered by the printed parent chain.

Study 1
Target: CCND1, cyclin fold, Cln2 fusion (human)
Method: yeast growth competition, sequencing
Matrix: yeast
Setting: weak parent motif
Reference: not given
Reading: higher = stronger binding
Parent: PKMYT1 docking peptide (human); SFEPRNLLSLFED; partner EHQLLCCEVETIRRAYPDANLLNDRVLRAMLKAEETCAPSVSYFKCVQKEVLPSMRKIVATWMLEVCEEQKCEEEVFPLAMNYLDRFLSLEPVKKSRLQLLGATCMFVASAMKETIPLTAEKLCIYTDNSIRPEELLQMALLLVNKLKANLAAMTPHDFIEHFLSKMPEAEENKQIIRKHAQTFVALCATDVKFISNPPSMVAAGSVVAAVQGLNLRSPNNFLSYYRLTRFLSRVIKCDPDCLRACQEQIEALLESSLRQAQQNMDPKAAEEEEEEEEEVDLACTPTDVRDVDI
Substitution	normalised enrichment score
IFEPRNLLSLFED [S1I]	0.293
SFECRNLLSLFED [P4C]	1.05
SFVPRNLLSLFED [E3V]	0.829
SFEPRNLLSLFPD [E12P]	0.888
DFEPRNLLSLFED [S1D]	0.3
SFEPRHLLSLFED [N6H]	0.857
SFEPRNLLSLTED [F11T]	1.07
SFFPRNLLSLFED [E3F]	0.0738
STEPRNLLSLFED [F2T]	1.29
SFEPRNLLSPFED [L10P]	1.14
SFEPRNLLGLFED [S9G]	1.49
SFEPFNLLSLFED [R5F]	1.15
SFEPRWLLSLFED [N6W]	1.71
SFEPRNLLSKFED [L10K]	0.05
SFEPRNLLSYFED [L10Y]	1.05
SFEPRNLLSRFED [L10R]	0.887
NFEPRNLLSLFED [S1N]	0.438
SFEPRNLLSLDED [F11D]	0.826
SFEPRNLLILFED [S9I]	0.24
SFEPRNMLSLFED [L7M]	0.758
SFEPRNVLSLFED [L7V]	1.22
SFEPRNLLALFED [S9A]	1.04
SFEHRNLLSLFED [P4H]	1.47
SFEPRNLLSLFGD [E12G]	0.899
SFEPRRLLSLFED [N6R]	0.822

Study 2
Target: RNA binding protein fox-1 homolog 2, RRM domain, GST-SBP tag (RBFOX2, Homo sapiens, UniProt O43251-10, residues 100-194)
Method: RNA Bind-n-Seq
Form: RNA
Matrix: in vitro
Concentration: 365 nM
Setting: natural RNA segment, single round, ends assumed
Reference: no-protein control
Reading: higher = stronger binding
Target sequence (chain): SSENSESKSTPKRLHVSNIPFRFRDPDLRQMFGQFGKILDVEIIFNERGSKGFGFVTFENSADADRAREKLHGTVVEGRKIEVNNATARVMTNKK
Strand	RBNS enrichment (R)
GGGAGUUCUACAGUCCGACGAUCUCCCCACGCACUUCCCAGGCCAGAAUCCAAACAUCGGGAACCCUGUUUUCUUCUGGGUGUGUCUCACUUAGAAAUCGUGGUUCUUCCCCGAGGGUGCAUGUUGCAGGAGGUGGAAUUCUCGGGUGCCAA	1.01
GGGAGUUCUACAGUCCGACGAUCCCUCCAAGCGGCCCUGUGUGUUUGACAUGUGAAGCUAUUUGAUAUGCACCAGGUCUCAAGGUUCUCAUUUCUCAGGUGACGUGAUUCUAAGGCAGGAAUUUGAGAGUUCAUGGAAUUCUCGGGUGCCAA	1.18
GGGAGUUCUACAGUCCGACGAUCAGGGAGAACAGGUAGUAGAAAUUCAGGAUUACCAAGUGGCCACCAGUGCACACACUCCGCAGCUGUGACUCAGCCUUGUGUAGGGUCCCAAAGAAGCAAGCCUUAGAACCUGGAAUUCUCGGGUGCCAA	0.478
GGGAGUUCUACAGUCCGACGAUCUAGCUUGGGAUACCUUUUUAAAAACACCAGAUAUUAAAAUGUCUGGCAAGGUUAGAAUCAGACUAGAUGAUUUGCUUCUAAAAAUUAGUUUCAGUGAGUCCCAGGGACUAUGGAAUUCUCGGGUGCCAA	0.352
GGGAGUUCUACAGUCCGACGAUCGGGUUUAAUUGCCCUAUUGCUCAAUGGUGUUCUUGCAUGGGGAUUCUCCAGUCCUACAGAUGAAAGCAAAGUAGGAAAUGAUCAUGGGCUUAUUGGGGCUUUUAGCAUCUUGGAAUUCUCGGGUGCCAA	12.3
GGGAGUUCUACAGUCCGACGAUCCUCCAUCCGAGUUUCCUCCUUCGUCCCCUGAUGAAGAGCCCCCUGAGAAUUGACAAGGAUGUAGAACAAGUGUUCCUUUCCAUCACACCUGCCAAGGGCAAAGCUACCUGUGGAAUUCUCGGGUGCCAA	0.371
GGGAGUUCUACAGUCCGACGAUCAGCAGGGCUGUGUCCCAGAUGGGCCACGGCUGAGCCUUCAGAGUACGUCCUGCCUGGCACUUACUGGUCCUUACCAGAGACGCCCAGCCCCAUCCCUGUCCUCAUGACCCUGGAAUUCUCGGGUGCCAA	0.19
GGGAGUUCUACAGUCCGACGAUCAAUGAACCAACAUUUUUUGGCUCCUUGGGAUCAGAGAGAGCCAGAGUAGCAGAGGGUCUCGUGCCCAAAAGGCUACCCUUCAAGAUAAGGGAGCCCCGAGGGUCUUUGCAUGGAAUUCUCGGGUGCCAA	14.9

Study 3
Target: Histone acetyltransferase KAT6A, winged helix 2, GST fusion (KAT6A, Homo sapiens, UniProt Q92794, residues 85-181)
Method: protein binding microarray
Form: double-stranded DNA, one strand shown
Matrix: in vitro
Concentration: not given
Setting: 8-mer, flanks averaged, mean of 2 arrays, mostly near background
Reference: not given
Reading: higher = stronger binding
Construct (chain): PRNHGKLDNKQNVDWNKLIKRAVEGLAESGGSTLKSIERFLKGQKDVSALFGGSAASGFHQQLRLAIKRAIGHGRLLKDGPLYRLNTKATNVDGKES
Strand	E-score
AGTTGCTA	-0.00073
TACTTGGA	0.04
ACCTAGCA	-0.102
GTACAGGA	-0.00143
CACGCGGA	0.14
ACTACCCG	-0.00993
CGACGAAC	0.0416
CTGACTTC	0.0943
GAATTCAC	0.0931
CACACATA	-0.0654
GCCTTTAC	-0.0707
ACGCAGGA	0.159
ATATCGGG	-0.169
ACGCTTGG	-0.0357
GAATTAAC	0.14
GGAGCGCC	0.187
GAATCGCC	0.0504
AGCCCCAC	0.0425
TCGATCGA	0.0484
AACAACTC	-0.104
AATCAGAG	0.0953
ATGAATTG	-0.0997
ATCACTCA	-0.0219
ATGGCGGA	0.0725
CGACGTTC	-0.201

Study 4
Target: Prothrombin, mature alpha-thrombin (F2, Homo sapiens, UniProt P00734)
Method: aptamer microarray, sandwich
Form: DNA with 2'F-ANA
Matrix: in vitro
Concentration: 200 nM
Setting: whole 15-mer aptamer, many near background
With: Cy3 exosite-II aptamer, 400 nM
Reading: higher = stronger binding
Strand: GGTTGGTGTGGTTGG
Modification	mean fluorescence intensity [a.u.]
2'F-ANA at 1 2 4 7 8 10 11 13 14 15	49.5
2'F-ANA at 4 8 9 11 13 15	187
2'F-ANA at 3 4 6 7 10 11 14	169
2'F-ANA at 1 3 8 9 12 13 14	139
2'F-ANA at 1 3 5 6 7 9 10 12 14	48.4
2'F-ANA at 2 4 5 6 12 15	139
2'F-ANA at 2 6 14	136
2'F-ANA at 1 3 4 9 14 15	77
2'F-ANA at 1 2 4 7 8 12	385
2'F-ANA at 1 3 5 6 8 10 12 13 14	47.3
2'F-ANA at 2 4 5 7 9 10 11 12 13 14 15	48.9
2'F-ANA at 1 4 7 8 12 13	270
2'F-ANA at 2 3 4 5 7 10 11 12 13 14 15	47.6
2'F-ANA at 2 3 5 8 10 11 12 13 15	57.1
2'F-ANA at 1 3 4 9 10 12 13	71.7
2'F-ANA at 1 5 6 7 10 11 12 15	50.5
2'F-ANA at 5 6 7 11 12 13	119
2'F-ANA at 1 2 3 4 7 8 10 12 14 15	51.5
2'F-ANA at 1 3 4 5 6 7 9 13	58.8
2'F-ANA at 1 2 5 7 9 13 14	45
2'F-ANA at 3 6 7 8 9 10 12 13 15	467

Repeated from above (study 3):
Strand	E-score
CACACATA	-0.0654
ACGCAGGA	0.159
CGACGTTC	-0.201
AGCCCCAC	0.0425
GGAGCGCC	0.187
CGACGAAC	0.0416
ACCTAGCA	-0.102
